Published values pooled from the literature.
± marks the error that the study gave.
Cell line: HT-29

SMILES | read-out | method | time | IC50
CCCCCC(=O)O[C@H]1[C@H](C)O[C@@H](O[C@H]2[C@H](N(C)C)[C@@H](O)[C@H](O[C@H]3[C@@H](CC=O)C[C@@H](C)[C@@H](O[C@H]4CC[C@H](N(C)C)[C@@H](C)O4)/C=C/C=C/C[C@@H](C)OC(=O)C[C@@H](O)[C@@H]3OC)O[C@@H]2C)C[C@@]1(C)O | cell growth or viability | CCK-8 | 72 h | 6.44 µM
CNCCNC(=O)c1cn(C23CCCC(C)(CCC4C2CC4(C)C)C3)nn1 (centres unmarked) | cell growth or viability | CCK-8 | 72 h | 8.8 µM
COCCSc1nc(N)c2c(F)c(C#N)c(F)c(Cl)c2n1 | cell growth or viability | MTT | 96 h | 7.97 µM
C[C@]12CC/C(=N\OCCN3CCCC3)C=C1CCC1C2CC[C@]2(C)/C(=C/c3ccccn3)CCC12 (some centres unmarked) | cell growth or viability | MTT | 72 h | 3.3 µM
CN1CCCC1CS(=O)(=O)NC12CCCC(C)(CCC3C1CC3(C)C)C2 (centres unmarked) | cell growth or viability | CCK-8 | 72 h | 11.5 µM
O=C(CSc1nnc(-c2ccccc2)o1)N1CCC(=C2c3ncccc3CCc3cc(Cl)cc(Br)c32)CC1 | cell growth or viability | SRB | – | > 120 µM
CC1CN(C(=O)c2cn(C34CCCC(C)(CCC5C3CC5(C)C)C4)nn2)CCN1 (centres unmarked) | cell growth or viability | CCK-8 | 72 h | 4.94 µM
CSc1nc(N)c2c(F)c(C#N)c(F)c(Cl)c2n1 | cell growth or viability | MTT | 96 h | 6.77 µM
COc1ccc(NC(=O)c2ccc(NC(=O)CN3C(=O)S/C(=C\c4ccccc4OC)C3=O)cc2)cc1 | cell growth or viability | MTT | – | 18.6 µM
COc1cc(C2COc3cc(O)cc(O)c3C2=NO)c(OC)cc1O (centres unmarked) | cell growth or viability | MTT | 72 h | 31.4 µM
O=C(CN1C(=O)S/C(=C\c2ccccc2)C1=O)Nc1ccc(C(=O)Nc2ccc(F)cc2)cc1 | cell growth or viability | MTT | – | 27.9 µM
N=C(N)NCCC[C@@H](N)C(=O)N[C@@H](Cc1c[nH]c2ccccc12)C(=O)N[C@@H](CCC(N)=O)C(=O)N[C@@H](Cc1c[nH]c2ccccc12)C(=O)N[C@@H](CCCNC(=N)N)C(=O)N[C@@H](Cc1c[nH]c2ccccc12)C(=O)N[C@@H](CCC(N)=O)C(=O)N[C@@H](Cc1c[nH]c2ccccc12)C(=O)N[C@@H](CCCNC(=N)N)C(N)=O | cell growth or viability | MTT | – | > 135 µM
CCN(CC)CCO/N=C1/C=C2CCC3C(CC[C@]4(C)/C(=C/c5ccccn5)CCC34)[C@@]2(C)CC1 (some centres unmarked) | cell growth or viability | MTT | 72 h | > 100 µM
COc1c(C)c(O)c(C(=O)C=Cc2ccccc2)c(OC)c1C | cell growth or viability | SRB | 72 h | 19.7 µM
N#Cc1c(F)c(F)c2nc(SCc3ccccc3)nc(N)c2c1F | cell growth or viability | MTT | 96 h | 6.06 µM
O=C(CNc1nnc(-c2ccccc2)s1)N1CCC(=C2c3ncccc3CCc3cc(Cl)cc(Br)c32)CC1 | cell growth or viability | SRB | – | > 120 µM
CO[C@@H]1[C@@H](O[C@@H]2O[C@H](C)[C@@H](O[C@H]3C[C@@](C)(O)[C@@H](OC(=O)CN4CCOCC4)[C@H](C)O3)[C@H](N(C)C)[C@H]2O)[C@@H](CC=O)C[C@@H](C)[C@@H](O[C@H]2CC[C@H](N(C)C)[C@@H](C)O2)/C=C/C=C/C[C@@H](C)OC(=O)C[C@H]1O | cell growth or viability | CCK-8 | 72 h | 4.19 µM
CCCCSc1nc(N)c2c(F)c(C#N)c(F)c(Cl)c2n1 | cell growth or viability | MTT | 96 h | 59.4 µM
CC12CCCC(n3cc(C(=O)N4CCC(N)CC4)nn3)(C1)C1CC(C)(C)C1CC2 (centres unmarked) | cell growth or viability | CCK-8 | 72 h | 6.05 µM
CCCCSc1nc(N)c2c(F)c(F)c(C#N)c(F)c2n1 | cell growth or viability | MTT | 96 h | 35.7 µM
C#CCN(CC(=O)O[C@H]1[C@H](C)O[C@@H](O[C@H]2[C@H](N(C)C)[C@@H](O)[C@H](O[C@H]3[C@@H](CC=O)C[C@@H](C)[C@@H](O[C@H]4CC[C@H](N(C)C)[C@@H](C)O4)/C=C/C=C/C[C@@H](C)OC(=O)C[C@@H](O)[C@@H]3OC)O[C@@H]2C)C[C@@]1(C)O)Cc1ccc(C(F)(F)F)cc1 | cell growth or viability | CCK-8 | 72 h | 2.15 µM
O=C(NCCN1CCOCC1)c1cc2c3ccccc3n3c(=O)ccc(n1)c23 | cell growth or viability | MTT | 72 h | 1.1 µM
NS(=O)(=O)c1ccc(NC(=O)NN[C@@H]2OC[C@@H](O)[C@H](O)[C@H]2O)cc1 | cell growth or viability | MTT | 96 h | > 100 µM
CN1CCN(C(=O)c2cn(C34CCCC(C)(CCC5C3CC5(C)C)C4)nn2)CC1 (centres unmarked) | cell growth or viability | CCK-8 | 72 h | 22 µM

SMILES | read-out | method | time | IC50
Cn1ccn(N=Cc2ccccc2SSc2ccccc2C=Nn2ccn(C)c2=S)c1=S | cell proliferation | MTT | 72 h | 0.85 ± 0.15 µM
C=CCSc1nc(N)c2c(F)c(C#N)c(F)c(Cl)c2n1 | cell growth or viability | MTT | 96 h | 14.2 µM
CCCCNC(=O)O[C@H]1[C@H](C)O[C@@H](O[C@H]2[C@H](N(C)C)[C@@H](O)[C@H](O[C@H]3[C@@H](CC=O)C[C@@H](C)[C@@H](O[C@H]4CC[C@H](N(C)C)[C@@H](C)O4)/C=C/C=C/C[C@@H](C)OC(=O)C[C@@H](O)[C@@H]3OC)O[C@@H]2C)C[C@@]1(C)O | cell growth or viability | CCK-8 | 72 h | > 50 µM
CCCCSc1nc(N)c2c(F)c(C#N)c(F)c(F)c2n1 | cell growth or viability | MTT | 96 h | 8 µM
C[C@@H]1O[C@@H](NNC(=O)Nc2ccc(S(N)(=O)=O)cc2)[C@H](O)[C@H](O)[C@H]1O | cell growth or viability | MTT | 96 h | 86 µM
COc1cc(C2COc3cc(O)cc(O)c3C2=NN)c(OC)cc1O (centres unmarked) | cell growth or viability | MTT | 72 h | 97.8 µM
COc1ccc(C(=O)c2cc(C(=O)c3cc(Cl)ccc3O)c[n+]3c2NCCCC3)cc1 | cell growth or viability | MTT | 96 h | 14.1 µM
CC(=O)O[C@H]1CC[C@]2(C)[C@H]3CC=C4[C@@H]5[C@@H](C)[C@H](C)CC[C@]5(C)CC[C@@]4(C)[C@]3(C)CC[C@H]2C1(C)C | cell growth or viability | resazurin | 96 h | 7.97 µg/mL
N#Cc1c(F)c(F)c2nc(SCc3ccc4ccccc4c3)nc(N)c2c1F | cell growth or viability | MTT | 96 h | 5.8 µM
CCCCc1ccc(C(=O)O[C@H]2[C@H](C)O[C@@H](O[C@H]3[C@H](N(C)C)[C@@H](O)[C@H](O[C@H]4[C@@H](CC=O)C[C@@H](C)[C@@H](O[C@H]5CC[C@H](N(C)C)[C@@H](C)O5)/C=C/C=C/C[C@@H](C)OC(=O)C[C@@H](O)[C@@H]4OC)O[C@@H]3C)C[C@@]2(C)O)cc1 | cell growth or viability | CCK-8 | 72 h | 4.67 µM
C=C(CO)C(=O)O[C@H]1CC(=C)[C@@H]2C[C@H](O)[C@](O)(CCl)[C@@H]2[C@H]2OC(=O)C(=C)C12 (some centres unmarked) | cell growth or viability | – | – | 2.5 µg/mL
CO[C@@H]1[C@@H](O[C@@H]2O[C@H](C)[C@@H](O[C@H]3C[C@@](C)(O)[C@@H](OC(=O)NC4CCCCC4)[C@H](C)O3)[C@H](N(C)C)[C@H]2O)[C@@H](CC=O)C[C@@H](C)[C@@H](O[C@H]2CC[C@H](N(C)C)[C@@H](C)O2)/C=C/C=C/C[C@@H](C)OC(=O)C[C@H]1O | cell growth or viability | CCK-8 | 72 h | > 50 µM
COc1c(C)c(OC(=O)c2ccccc2)c(C)c(OC(=O)c2ccccc2)c1C(=O)/C=C/c1ccccc1 | cell growth or viability | SRB | 72 h | 33.8 µM
C[C@]12CC/C(=N/O)C=C1CCC1C2CC[C@]2(C)/C(=C/c3ccccn3)CCC12 (some centres unmarked) | cell growth or viability | MTT | 72 h | 10.6 µM
CCCCCCCC(=O)Oc1c(C)c(OC)c2c(c1C)OC(=O)[C@@H](CCCCCC)[C@]2(O)/C=C/c1ccccc1 (racemic) | cell growth or viability | SRB | 72 h | > 50 µM
NS(=O)(=O)c1ccc(NC(=O)NN[C@@H]2O[C@H](CO)[C@@H](O)[C@H](O)[C@@H]2O)cc1 | cell growth or viability | MTT | 96 h | 82 µM
CCCCCCCC(=O)O[C@H]1[C@H](C)O[C@@H](O[C@H]2[C@H](N(C)C)[C@@H](O)[C@H](O[C@H]3[C@@H](CC=O)C[C@@H](C)[C@@H](O[C@H]4CC[C@H](N(C)C)[C@@H](C)O4)/C=C/C=C/C[C@@H](C)OC(=O)C[C@@H](O)[C@@H]3OC)O[C@@H]2C)C[C@@]1(C)O | cell growth or viability | CCK-8 | 72 h | 5.42 µM
O=C(CN1CCC(c2noc3cc(F)ccc23)CC1)N1CCC(=C2c3ncccc3CCc3cc(Cl)cc(Br)c32)CC1 | cell growth or viability | SRB | – | 45 µM
O=C(/C=C(O)/C=C/c1cccs1)/C=C/c1cccs1 | cell growth or viability | SRB | 72 h | 59.1 µM
C[C@]12CC/C(=N\OCCN3CCCCC3)C=C1CCC1C2CC[C@]2(C)/C(=C/c3ccccn3)CCC12 (some centres unmarked) | cell growth or viability | MTT | 72 h | 23.9 µM
O=C(CN1CCN(c2nsc3ccccc23)CC1)N1CCC(=C2c3ncccc3CCc3cc(Cl)cc(Br)c32)CC1 | cell growth or viability | SRB | – | < 15 µM
C[C@]12CC/C(=N\OCCN3CCOCC3)C=C1CCC1C2CC[C@]2(C)/C(=C/c3ccccn3)CCC12 (some centres unmarked) | cell growth or viability | MTT | 72 h | 7.8 µM
CO[C@@H]1[C@@H](O[C@@H]2O[C@H](C)[C@@H](O[C@H]3C[C@@](C)(O)[C@@H](OC(=O)c4ccccc4)[C@H](C)O3)[C@H](N(C)C)[C@H]2O)[C@@H](CC=O)C[C@@H](C)[C@@H](O[C@H]2CC[C@H](N(C)C)[C@@H](C)O2)/C=C/C=C/C[C@@H](C)OC(=O)C[C@H]1O | cell growth or viability | CCK-8 | 72 h | 3.49 µM

Repeated from above:
SMILES | read-out | method | time | IC50
C=C(CO)C(=O)O[C@H]1CC(=C)[C@@H]2C[C@H](O)[C@](O)(CCl)[C@@H]2[C@H]2OC(=O)C(=C)C12 (some centres unmarked) | cell growth or viability | – | – | 2.5 µg/mL
CO[C@@H]1[C@@H](O[C@@H]2O[C@H](C)[C@@H](O[C@H]3C[C@@](C)(O)[C@@H](OC(=O)c4ccccc4)[C@H](C)O3)[C@H](N(C)C)[C@H]2O)[C@@H](CC=O)C[C@@H](C)[C@@H](O[C@H]2CC[C@H](N(C)C)[C@@H](C)O2)/C=C/C=C/C[C@@H](C)OC(=O)C[C@H]1O | cell growth or viability | CCK-8 | 72 h | 3.49 µM
CC1CN(C(=O)c2cn(C34CCCC(C)(CCC5C3CC5(C)C)C4)nn2)CCN1 (centres unmarked) | cell growth or viability | CCK-8 | 72 h | 4.94 µM
CCCCCCCC(=O)Oc1c(C)c(OC)c2c(c1C)OC(=O)[C@@H](CCCCCC)[C@]2(O)/C=C/c1ccccc1 (racemic) | cell growth or viability | SRB | 72 h | > 50 µM
O=C(CN1CCN(c2nsc3ccccc23)CC1)N1CCC(=C2c3ncccc3CCc3cc(Cl)cc(Br)c32)CC1 | cell growth or viability | SRB | – | < 15 µM
CCCCSc1nc(N)c2c(F)c(C#N)c(F)c(F)c2n1 | cell growth or viability | MTT | 96 h | 8 µM
